Published values of several laboratories.
Each numbered part is a random draw from the data of one study; scales do not carry over between parts. Changes are numbered by the printed parent chain.

Block 1
Target: RING finger protein unkempt homolog, zinc fingers 1-6, GST-SBP tag (UNK, Homo sapiens, UniProt Q9C0B0, residues 30-357)
Chain of UniProt Q9C0B0 (30-357, looked up): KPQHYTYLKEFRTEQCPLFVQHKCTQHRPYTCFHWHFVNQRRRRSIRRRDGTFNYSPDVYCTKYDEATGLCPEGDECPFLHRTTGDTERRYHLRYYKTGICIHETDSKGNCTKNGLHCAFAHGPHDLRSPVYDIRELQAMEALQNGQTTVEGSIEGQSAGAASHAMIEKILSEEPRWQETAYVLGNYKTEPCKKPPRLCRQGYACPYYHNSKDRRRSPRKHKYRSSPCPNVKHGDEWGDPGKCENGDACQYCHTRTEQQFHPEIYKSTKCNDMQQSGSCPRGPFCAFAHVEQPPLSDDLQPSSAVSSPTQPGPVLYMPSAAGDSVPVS
Method: RNA Bind-n-Seq
Form: RNA
Matrix: in vitro
Tested at: not given
Notes: RNA with constant flanks, human and mouse sites, ends assumed
Relative to: input RNA pool
Reading: higher = stronger binding
With `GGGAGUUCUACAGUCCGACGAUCGUUAUCUCCAACAAAGCCGCAGUAGCUGGGUUAGAUAAAGCGGAAAGAGCUGGUAUUCCCACUAGAGUAAUUAAUCAUAAACUGUAUAAAAAUCGUGUAGAAUUUGACAGUGCAAUUGACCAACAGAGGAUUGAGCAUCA` the bound/input enrichment was 109 ratio.
With `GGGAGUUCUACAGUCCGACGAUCUUAGAAUGUUACUUAGACCAAGUUUAGCUUUUAGAGUCCAGGUCUGGUUAAUUGCCAGGGUAGCAAAGAAUUGCAUGCACCAAUAUAAACAGGAGUCAAAAAUGCAUUAUUAAUCGAAGACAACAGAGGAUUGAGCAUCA` the bound/input enrichment was 1.24 ratio.
For `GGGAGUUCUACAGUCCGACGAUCGGCGCAGCUGCCCUUGUGCCCGAGGCCCAGGACAGCCAGGUCACCAGCACCAAGAGUAAGUCCUCAGCCGAGGUCAAGGUCACCAUUAAGAGGACUCUGGUGGGGCCCCGGGGGAGCAGCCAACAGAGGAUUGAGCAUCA`, the bound/input enrichment was 0.667 ratio.
`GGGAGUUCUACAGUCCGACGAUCUAUGAUUUGGCUGGUUCGUGUAGAGGGGUCAAGGUCAUGUUUAAUGGAAAGAAAUUGCCUGUAAAUGGAUUUCGCAGUUAUGUAGAUCUUUAUGUGAAAGACAAAUUGGAUGAAACUGGGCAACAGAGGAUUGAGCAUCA` gave a bound/input enrichment of 0.482 ratio.
For `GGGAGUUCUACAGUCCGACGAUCGUAGAAUUUUGUCAUCCUGAAGACCAACAACUUCUAAGAGACAGCUUUCAGCAGGUGGUGAAAUUAAAAGGUCAGGUGCUGUCCGUCAUGUUCCGAUUCCGAUCUAAGACCCGAGAAUGGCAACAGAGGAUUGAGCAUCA`, the bound/input enrichment was 0.128 ratio.
With `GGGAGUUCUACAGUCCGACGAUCUUCCUGACCCGGCCUAAGGUCCCUGUCUUGCAGCUGGAUAGCGGCAACUACCUCUUCUCCACUAGUGCAAUCUGCCGAUAUUUUUUUUUGUUAUCUGGCUGGGAGCAAGAUGACCUCACUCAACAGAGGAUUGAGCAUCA` the bound/input enrichment was 0.955 ratio.
`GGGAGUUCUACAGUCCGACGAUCAAGUGCCAUGAGAAAAUUUGCAUACUGCAAGGUGGUCCUAGCCACCUCCUUGAUUUGGGUACUCUUGGAUAUGUUCCUGCUGCUUUACUUCAGUGAAUGCAACAAAUGUGAUGAAAAAAACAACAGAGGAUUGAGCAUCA` gave a bound/input enrichment of 0.172 ratio.
With `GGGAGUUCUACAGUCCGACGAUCGACUUCACUGUAUUUGAAAGGAUAUCUCUUGCCUGGAGCCCAAUUACAUCUUUAAUGUGGGCUUGUGGUCGCCAUUUGUAUGAGUGUGCAGAAGAAGAAAGUGAUAACUCCUUAGAAAAACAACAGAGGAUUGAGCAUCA` the bound/input enrichment was 0.352 ratio.
The bound/input enrichment of `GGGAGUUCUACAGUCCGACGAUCUAGUGACAUGGCCUUUGGGGACAGUACAUGAUUUCUCAUAAUUUGAAUUCAUAGUAGAUAUAGUUAAGGGAACAGCAGUCAGGUUAUGAAUCUUUUCCCAUUUUUCUUUUUAAGUAAAUUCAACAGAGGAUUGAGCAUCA` is reported as 7.79 ratio.
`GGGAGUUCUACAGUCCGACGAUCACGACAUUGCGACAGCGCAGAAAGCCAGUGUUCCACCUGUCCCACGAGGAGCGUGUCCAACAUAGGAACAUUAAAGACCUUAAGCUGGCCUUCAGCGAGUUCUACCUCAGUCUCAUCCUGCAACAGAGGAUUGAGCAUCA` gave a bound/input enrichment of 0.125 ratio.
`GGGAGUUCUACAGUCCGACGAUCAUGCUUGGUUGUAAGACACCAAUAGGAAAACCAGCCACUGCAAAACUUUAAUAAUCAACAAAUAGUUAUGGAAAAUUCGGUCACGUAAUUACUCUCAUCGAAGGACUCAUUACAACAAACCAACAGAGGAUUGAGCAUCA` gave a bound/input enrichment of 5.14 ratio.

Block 2
Target: ABI1, truncated, D143A, DHFR fusion (Arabidopsis thaliana)
Method: DHFR PCA, deep sequencing
Matrix: yeast
Notes: methotrexate growth selection, single substitutions
Together with: (+)-ABA 0.39 µM
Relative to: wild-type fitted maximum
Reading: higher = stronger binding
Starting sequence: PYL1, truncated, DHFR fusion (Arabidopsis thaliana); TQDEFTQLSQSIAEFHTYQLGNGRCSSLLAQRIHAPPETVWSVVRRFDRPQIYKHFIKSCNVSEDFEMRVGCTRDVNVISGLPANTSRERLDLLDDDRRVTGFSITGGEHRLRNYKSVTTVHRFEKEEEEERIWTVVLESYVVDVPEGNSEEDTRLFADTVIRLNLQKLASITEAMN; partner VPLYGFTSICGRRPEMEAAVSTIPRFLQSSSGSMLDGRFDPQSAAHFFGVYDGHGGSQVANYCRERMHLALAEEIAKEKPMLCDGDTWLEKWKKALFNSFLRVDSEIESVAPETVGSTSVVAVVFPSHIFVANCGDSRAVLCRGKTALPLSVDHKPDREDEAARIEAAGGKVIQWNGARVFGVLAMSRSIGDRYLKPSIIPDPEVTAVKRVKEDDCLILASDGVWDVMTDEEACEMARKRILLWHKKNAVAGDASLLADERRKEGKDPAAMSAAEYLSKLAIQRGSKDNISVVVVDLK
`V143H` — result for “relative binding score”: -2.95%.
`Y53G` — result for “relative binding score”: -3.98%.
`W134N`: “relative binding score” 7.96%.
For `S9L`, “relative binding score” read 34.8%.
Under “relative binding score”, `Q31K` is recorded as 27.2%.
Under “relative binding score”, `S104H` is recorded as -12.9%.
`L28S` — result for “relative binding score”: 2.99%.
`D159S` — result for “relative binding score”: -6.81%.
Under “relative binding score”, `V142L` is recorded as -16%.
`L169M` — result for “relative binding score”: -3.71%.
Under “relative binding score”, `W41K` is recorded as -12.6%.
`D153T`: “relative binding score” -15.2%.
For `L29A`, “relative binding score” read -3.02%.
`R69S`: “relative binding score” 31.7%.
`E131P`: “relative binding score” 74.3%.
`Q19F` — result for “relative binding score”: 7.5%.
For `R32D`, “relative binding score” read 3.37%.
`E147P` — result for “relative binding score”: 46.8%.

Block 3
Target: Fragile X messenger ribonucleoprotein 1, C-terminal low-complexity region (Fmr1, Mus musculus, UniProt P35922)
Method: RNA Bind-n-Seq
Form: RNA
Matrix: in vitro
Tested at: 200 nM
Notes: whole 134-nt RNA, ends assumed
Together with: 150 mM KCl
Relative to: input library
Reading: higher = stronger binding
`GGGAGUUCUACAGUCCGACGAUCAGUCCUGUGCUACACAUCGUAUGUACCGAAUCGGAAAAAGGUUUUUGGAAAAAAAGGAAAGUAUUAUGUUACGCCGUUCGGAUCUGCACUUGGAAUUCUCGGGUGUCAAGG` has a log2 enrichment of -1.29.
For `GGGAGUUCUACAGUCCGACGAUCUCAAGUCCUGUGCUACACAUCGUAUGUACCGAAUCGGUUUGGAAAAAGGAAAGGAAAGUAUUAUGUUACGCCGUUCGGAUCUGCACUUCCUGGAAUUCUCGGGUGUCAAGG`, the log2 enrichment was -0.447.
`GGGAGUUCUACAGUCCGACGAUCACCAUGCAGGUGGGCAUCUUUGGGAAGUGGCGCAAGGGGGGGAUAGGGAGGGGGGUAACACUUUGGGAACAGGUGGUCCCAGGUCGUUUCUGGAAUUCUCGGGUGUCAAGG` gave a log2 enrichment of 0.997.
With `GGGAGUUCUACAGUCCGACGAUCCUCAAGUCCUGUGCUACACAUCGUAUGUACCGAAUCGGGUUGGUUGGGUUGGGAAAGUAUUAUGUUACGCCGUUCGGAUCUGCACUUCCAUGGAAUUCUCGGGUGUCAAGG` the log2 enrichment was 1.09.
The log2 enrichment of `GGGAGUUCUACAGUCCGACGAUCGUCAAGAAAGAUCUUAAGACUGGUCAUUCAAAGGGGUUUGGCUUUGUUCGUUUUACGGAAUAUGAAACACAAGUGAAAGUAAUGUCACAGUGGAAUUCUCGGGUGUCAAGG` is reported as -0.564.
The log2 enrichment of `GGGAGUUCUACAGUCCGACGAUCCACAGCCAACACGCACCCACACAGACACAGAGGGAAGGGGUUGGGAUGGGGACAGGGUGCACAGCAGGGCGGGGUAGGACCCCAGCCCCUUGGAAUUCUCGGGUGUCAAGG` is reported as 1.27.
`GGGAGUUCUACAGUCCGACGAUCACCAUGCAGGUGGGCAACUUUGGGAAGUGGGGCAAGGGGGGGAUAGGGAGGGGGGUAACACUUUGGGAACAGGUGGUCCCAGGUCGUUUCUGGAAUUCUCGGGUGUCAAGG` has a log2 enrichment of 0.736.
`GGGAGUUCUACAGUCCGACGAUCGUCCUGUGCUACACAUCGUAUGUACCGAAUCGGGGUGGGGUUUUUGGGGUUUUUGGGGAAAGUAUUAUGUUACGCCGUUCGGAUCUGCACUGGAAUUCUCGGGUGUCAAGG` gave a log2 enrichment of 0.802.
For `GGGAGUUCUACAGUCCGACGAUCGUCCUGUGCUACACAUCGUAUGUACCGAAUCGGGCCCCCGGGCCCCCGGCCCCCGGGGAAAGUAUUAUGUUACGCCGUUCGGAUCUGCACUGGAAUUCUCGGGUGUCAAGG`, the log2 enrichment was -0.422.
The log2 enrichment of `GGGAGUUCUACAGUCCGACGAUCACCAUGCAGGUGGGCAUCUUUGGGAAGUUGGGCAAGGGGGGGAUAGGGAGGGGGGUAACACUUUGGGAACAGGUGGUCCCAGGUCGUUUCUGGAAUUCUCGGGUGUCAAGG` is reported as 1.01.
`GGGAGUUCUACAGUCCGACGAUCGCAGGAAGUAAAAACAAAUGGAAAUGCUUCGGAUAGUGGCAUGGGUGGGGGUUGCUAAGGAAAGGGUGGGAUGGGAGUGGGUAAAGAGUUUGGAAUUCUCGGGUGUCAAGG` has a log2 enrichment of 0.21.
With `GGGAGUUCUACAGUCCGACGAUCUCCUGUGCUACACAUCGUAUGUACCGAAUCGGGGAAAAAAGGAAAAAAGGGAAAAAAGGAAAGUAUUAUGUUACGCCGUUCGGAUCUGCAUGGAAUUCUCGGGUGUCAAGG` the log2 enrichment was -0.269.
With `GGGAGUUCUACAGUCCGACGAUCAAGUCCUGUGCUACACAUCGUAUGUACCGAAUCGGGGUGGGGUUUUUGGGGUGGGGAAAGUAUUAUGUUACGCCGUUCGGAUCUGCACUUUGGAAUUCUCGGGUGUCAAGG` the log2 enrichment was 1.17.
`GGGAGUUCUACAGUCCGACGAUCUGGCCCUGGUGGCAUGCGGGGAGGAAGAGGUGGCCUCAUGGAUCGUGGUGGUCCCGGGGGAAUGUUCAGAGGUGGCCGUGGUGGAGACAGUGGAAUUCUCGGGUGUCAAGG` gave a log2 enrichment of 0.348.

Block 4
Target: CCNE1, cyclin fold, Cln2 fusion (human)
Method: yeast growth competition, sequencing
Matrix: yeast
Notes: strong parent motif
Relative to: not given
Reading: higher = stronger binding
Starting sequence: CDKN1B docking peptide (human); PSACRNLFGPVDH; partner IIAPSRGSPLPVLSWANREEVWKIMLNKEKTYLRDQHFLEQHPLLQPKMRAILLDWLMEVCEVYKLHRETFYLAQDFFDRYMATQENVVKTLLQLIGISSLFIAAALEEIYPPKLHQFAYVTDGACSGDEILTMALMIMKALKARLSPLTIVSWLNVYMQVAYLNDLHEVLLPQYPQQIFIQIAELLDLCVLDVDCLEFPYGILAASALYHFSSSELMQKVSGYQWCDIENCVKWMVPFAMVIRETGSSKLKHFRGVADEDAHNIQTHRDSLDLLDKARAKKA
`H13G`: “normalised enrichment score” 2.84.
`P1M`: “normalised enrichment score” 3.84.
Under “normalised enrichment score”, `D12Y` is recorded as 2.63.
`H13E`: “normalised enrichment score” 2.82.
Under “normalised enrichment score”, `H13S` is recorded as 2.71.
`G9I` — result for “normalised enrichment score”: 0.595.
For `D12E`, “normalised enrichment score” read 2.75.
Under “normalised enrichment score”, `R5K` is recorded as 0.983.
Under “normalised enrichment score”, `R5S` is recorded as 0.759.
`D12G`: “normalised enrichment score” 2.59.
`S2M`: “normalised enrichment score” 1.83.
Under “normalised enrichment score”, `L7P` is recorded as -0.209.
`P1C`: “normalised enrichment score” 2.93.
For `S2P`, “normalised enrichment score” read 2.67.
Under “normalised enrichment score”, `H13F` is recorded as 3.84.
`V11Q`: “normalised enrichment score” 2.55.
`V11M` — result for “normalised enrichment score”: 2.46.

Single results of other studies
With `PhoQ, residues 284 288 289 292 302 303 TTCLQL` the fold induction was 6.83 (PhoP, residues 12 14 15 18 19 NQFFI (Escherichia coli, UniProt P23836); Sort-seq, item: YFP reporter; E. coli; PhoQ-PhoP variant library, together with: 10 µM Mg2+; relative to: high Mg2+ state, higher = stronger signaling).

Some of these lines once more (block 4):
`V11M` — result for “normalised enrichment score”: 2.46.
Under “normalised enrichment score”, `R5S` is recorded as 0.759.
Under “normalised enrichment score”, `H13S` is recorded as 2.71.
`H13G`: “normalised enrichment score” 2.84.
Under “normalised enrichment score”, `H13F` is recorded as 3.84.
`G9I` — result for “normalised enrichment score”: 0.595.
Under “normalised enrichment score”, `R5K` is recorded as 0.983.
Under “normalised enrichment score”, `L7P` is recorded as -0.209.
`V11Q`: “normalised enrichment score” 2.55.
`S2M`: “normalised enrichment score” 1.83.
